Published values from different studies.
Compare with care: the assays were run in different laboratories. Numbers after ± are the reported error.
GRM2: Metabotropic glutamate receptor 2 (GRM2, Homo sapiens, UniProt Q14416)
UniProt Q14416, sequence (whole entry, looked up): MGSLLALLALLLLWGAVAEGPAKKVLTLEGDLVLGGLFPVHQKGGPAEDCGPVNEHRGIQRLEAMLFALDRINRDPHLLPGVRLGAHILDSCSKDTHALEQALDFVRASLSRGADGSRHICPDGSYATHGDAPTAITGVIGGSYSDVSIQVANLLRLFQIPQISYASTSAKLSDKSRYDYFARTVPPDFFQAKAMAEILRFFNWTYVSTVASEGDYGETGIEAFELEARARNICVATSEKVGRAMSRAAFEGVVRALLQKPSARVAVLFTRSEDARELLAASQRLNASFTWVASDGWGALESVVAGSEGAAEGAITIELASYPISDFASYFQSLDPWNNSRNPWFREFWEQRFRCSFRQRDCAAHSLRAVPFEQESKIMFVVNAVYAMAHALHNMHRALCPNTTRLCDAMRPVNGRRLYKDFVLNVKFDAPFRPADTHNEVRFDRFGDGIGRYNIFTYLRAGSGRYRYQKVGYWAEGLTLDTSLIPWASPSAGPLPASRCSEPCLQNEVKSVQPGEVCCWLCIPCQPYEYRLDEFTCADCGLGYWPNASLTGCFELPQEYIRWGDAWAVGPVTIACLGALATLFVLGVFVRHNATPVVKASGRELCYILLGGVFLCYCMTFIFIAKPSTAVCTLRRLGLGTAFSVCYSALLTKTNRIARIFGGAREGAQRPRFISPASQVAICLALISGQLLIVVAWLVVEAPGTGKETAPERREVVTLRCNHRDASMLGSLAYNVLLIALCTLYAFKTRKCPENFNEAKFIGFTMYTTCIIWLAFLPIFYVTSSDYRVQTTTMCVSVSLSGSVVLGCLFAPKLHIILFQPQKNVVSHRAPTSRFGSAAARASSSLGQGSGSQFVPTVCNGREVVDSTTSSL
UniProt P00747, sequence (whole entry, looked up): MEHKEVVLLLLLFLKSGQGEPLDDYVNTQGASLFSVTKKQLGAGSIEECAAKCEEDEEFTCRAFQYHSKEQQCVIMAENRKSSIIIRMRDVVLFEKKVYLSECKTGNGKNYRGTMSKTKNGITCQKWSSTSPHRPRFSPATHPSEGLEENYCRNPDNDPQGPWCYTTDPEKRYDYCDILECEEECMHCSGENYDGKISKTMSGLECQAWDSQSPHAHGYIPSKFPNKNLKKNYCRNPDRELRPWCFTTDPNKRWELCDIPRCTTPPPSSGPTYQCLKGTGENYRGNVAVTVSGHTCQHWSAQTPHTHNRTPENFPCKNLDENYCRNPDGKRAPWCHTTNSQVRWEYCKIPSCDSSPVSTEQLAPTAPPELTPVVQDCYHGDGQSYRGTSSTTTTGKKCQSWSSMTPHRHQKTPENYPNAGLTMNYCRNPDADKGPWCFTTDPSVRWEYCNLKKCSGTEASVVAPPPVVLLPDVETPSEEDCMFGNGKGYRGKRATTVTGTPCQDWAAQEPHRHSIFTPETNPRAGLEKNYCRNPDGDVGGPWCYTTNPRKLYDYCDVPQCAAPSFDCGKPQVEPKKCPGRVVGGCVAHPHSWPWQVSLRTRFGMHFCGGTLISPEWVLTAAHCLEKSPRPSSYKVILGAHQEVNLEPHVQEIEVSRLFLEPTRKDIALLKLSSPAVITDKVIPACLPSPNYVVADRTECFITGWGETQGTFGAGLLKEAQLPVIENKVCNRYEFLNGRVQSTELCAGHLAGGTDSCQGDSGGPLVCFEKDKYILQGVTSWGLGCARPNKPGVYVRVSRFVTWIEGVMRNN
UniProt Q9ESK4, sequence (whole entry, looked up): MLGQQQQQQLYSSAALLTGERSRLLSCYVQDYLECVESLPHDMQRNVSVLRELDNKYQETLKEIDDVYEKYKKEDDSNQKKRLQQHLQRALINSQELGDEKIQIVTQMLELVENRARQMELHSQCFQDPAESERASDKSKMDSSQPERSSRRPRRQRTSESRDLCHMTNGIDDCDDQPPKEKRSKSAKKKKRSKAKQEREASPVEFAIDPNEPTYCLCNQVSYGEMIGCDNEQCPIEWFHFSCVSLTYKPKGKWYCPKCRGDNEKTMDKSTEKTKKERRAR

Compound = Cc1ccc(C=NNC(=S)N[N+](=O)[O-])cc1; tested on = Leishmania major; test = parasite growth; test system = J774.A1; setting = 72 h, intracellular, amastigote; endpoint = IC50; result = 680 µM
Compound = COc1ccc(NC(=O)CSc2nc3ccccc3cc2C=Nn2c(S)nnc2-c2ccccc2)cc1; test = DPPH scavenging; endpoint = IC50; result = 98.9 µM
Compound = CCCCn1ccn2c(-c3ccc(Oc4ccccc4)cc3)c(C)nc2c1=O; tested on = GRM2; test = GTPγS binding, positive allosteric modulator; setting = added: EC20 glutamate; endpoint = EC50; result = 0.015 µM
Compound = O=C(CSc1nc2ccccc2cc1C=Nn1c(S)nnc1-c1ccccc1)Nc1cccc(Cl)c1; test = DPPH scavenging; endpoint = IC50; result = 94.5 µM
Compound = CCCCn1ccn2c(-c3ccc(NCc4ccc(OC)nc4)cc3)c(C)nc2c1=O; tested on = GRM2; test = GTPγS binding, positive allosteric modulator; setting = added: EC20 glutamate; endpoint = EC50; result = 0.073 µM
Compound = CCCC(CCC)C(=O)O; test system = mouse, pilocarpine-induced seizures; setting = oral, 300 mg/kg, 30 min after pilocarpine; scale = direction not given; endpoint = Racine score; result = 2.1 ± 0.57
Compound = COCCOCCOCCOCCOCCOCCOCCOCCOCCOCCOCCOCCOCCC(=O)NCc1ccc(C(=N)N)cc1; tested on = Plasminogen (PLG, Homo sapiens, UniProt P00747); test = enzyme activity, inhibitor, absorbance; setting = pH 7.4; endpoint = Ki; result = 360 µM
Compound = CCCCc1oc2ccccc2c1C(=O)c1cc(I)c(OCCN)c(I)c1; tested on = Inhibitor of growth protein 2, PHD finger (Ing2, Mus musculus, UniProt Q9ESK4); test = fluorescence polarization; endpoint = IC50; result = 97 ± 41 µM
